Assay results collected from several papers.
A part holds a random share of what one study measured. “And” joins repeats or separate records; there may be more than shown.
Chain of UniProt P05771 (whole entry, looked up): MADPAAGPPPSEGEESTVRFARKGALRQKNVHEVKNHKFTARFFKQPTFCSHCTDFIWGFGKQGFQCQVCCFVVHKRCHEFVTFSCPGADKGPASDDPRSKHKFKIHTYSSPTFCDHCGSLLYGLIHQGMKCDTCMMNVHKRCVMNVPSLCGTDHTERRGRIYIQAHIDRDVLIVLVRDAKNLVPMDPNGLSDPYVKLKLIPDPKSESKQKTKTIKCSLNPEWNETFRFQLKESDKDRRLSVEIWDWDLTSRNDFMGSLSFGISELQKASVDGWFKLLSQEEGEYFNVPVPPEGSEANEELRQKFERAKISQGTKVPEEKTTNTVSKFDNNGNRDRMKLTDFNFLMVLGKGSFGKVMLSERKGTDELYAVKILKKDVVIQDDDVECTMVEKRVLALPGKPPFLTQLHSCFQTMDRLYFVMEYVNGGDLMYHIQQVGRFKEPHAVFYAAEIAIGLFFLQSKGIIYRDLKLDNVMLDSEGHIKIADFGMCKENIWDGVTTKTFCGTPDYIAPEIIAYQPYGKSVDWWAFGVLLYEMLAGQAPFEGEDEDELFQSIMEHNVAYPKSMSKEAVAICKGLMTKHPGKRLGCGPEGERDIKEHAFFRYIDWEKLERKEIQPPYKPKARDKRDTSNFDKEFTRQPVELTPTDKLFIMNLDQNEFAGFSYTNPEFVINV
Chain of UniProt O43293 (whole entry, looked up): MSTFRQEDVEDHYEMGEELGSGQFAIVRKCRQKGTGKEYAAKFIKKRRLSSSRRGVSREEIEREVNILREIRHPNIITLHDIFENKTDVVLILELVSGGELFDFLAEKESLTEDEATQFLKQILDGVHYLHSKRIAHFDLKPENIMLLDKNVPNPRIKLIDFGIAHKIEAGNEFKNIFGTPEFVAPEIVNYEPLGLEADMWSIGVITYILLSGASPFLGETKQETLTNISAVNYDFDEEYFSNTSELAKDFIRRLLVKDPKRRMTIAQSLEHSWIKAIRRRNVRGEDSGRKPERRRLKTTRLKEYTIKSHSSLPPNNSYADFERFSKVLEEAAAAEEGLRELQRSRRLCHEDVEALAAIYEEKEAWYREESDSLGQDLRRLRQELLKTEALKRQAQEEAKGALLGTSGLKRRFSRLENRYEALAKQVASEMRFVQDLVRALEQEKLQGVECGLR
Chain of UniProt Q8IW41 (whole entry, looked up): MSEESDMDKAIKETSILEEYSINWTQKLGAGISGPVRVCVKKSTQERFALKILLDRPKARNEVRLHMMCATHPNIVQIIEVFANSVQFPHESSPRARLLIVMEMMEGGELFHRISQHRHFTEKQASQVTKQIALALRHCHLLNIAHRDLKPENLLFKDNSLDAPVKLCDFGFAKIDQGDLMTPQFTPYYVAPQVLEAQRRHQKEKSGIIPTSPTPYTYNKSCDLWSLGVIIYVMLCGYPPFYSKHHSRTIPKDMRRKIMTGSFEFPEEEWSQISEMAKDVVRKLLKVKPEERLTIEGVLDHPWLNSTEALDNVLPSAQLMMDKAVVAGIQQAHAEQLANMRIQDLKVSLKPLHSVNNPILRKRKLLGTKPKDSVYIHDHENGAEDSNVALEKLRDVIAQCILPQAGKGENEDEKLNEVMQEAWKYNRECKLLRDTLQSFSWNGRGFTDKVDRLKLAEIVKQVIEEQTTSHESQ
Chain of UniProt Q16584 (whole entry, looked up): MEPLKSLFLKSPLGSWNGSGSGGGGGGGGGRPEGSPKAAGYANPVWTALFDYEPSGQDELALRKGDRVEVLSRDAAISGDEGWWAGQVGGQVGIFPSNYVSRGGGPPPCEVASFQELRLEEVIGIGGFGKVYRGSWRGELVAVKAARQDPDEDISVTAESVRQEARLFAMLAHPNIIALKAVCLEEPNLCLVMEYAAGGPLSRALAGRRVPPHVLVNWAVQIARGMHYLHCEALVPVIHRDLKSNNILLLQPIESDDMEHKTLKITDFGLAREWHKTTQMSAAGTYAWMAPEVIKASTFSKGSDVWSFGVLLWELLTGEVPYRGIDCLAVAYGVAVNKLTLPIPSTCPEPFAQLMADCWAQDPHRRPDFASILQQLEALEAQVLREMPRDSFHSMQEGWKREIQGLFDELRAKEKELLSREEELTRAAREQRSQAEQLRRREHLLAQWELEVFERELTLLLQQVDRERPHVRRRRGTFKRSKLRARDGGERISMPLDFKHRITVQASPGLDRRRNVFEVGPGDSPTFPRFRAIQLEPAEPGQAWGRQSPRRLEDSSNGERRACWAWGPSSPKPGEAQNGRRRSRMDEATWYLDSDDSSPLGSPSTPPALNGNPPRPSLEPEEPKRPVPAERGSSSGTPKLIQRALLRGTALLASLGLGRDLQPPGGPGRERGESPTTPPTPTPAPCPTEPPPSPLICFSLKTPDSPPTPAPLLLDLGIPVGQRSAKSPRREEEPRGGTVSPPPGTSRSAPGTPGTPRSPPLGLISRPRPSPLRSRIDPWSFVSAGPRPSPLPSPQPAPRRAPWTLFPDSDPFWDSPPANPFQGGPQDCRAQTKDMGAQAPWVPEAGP
Chain of UniProt Q9Y6E0 (whole entry, looked up): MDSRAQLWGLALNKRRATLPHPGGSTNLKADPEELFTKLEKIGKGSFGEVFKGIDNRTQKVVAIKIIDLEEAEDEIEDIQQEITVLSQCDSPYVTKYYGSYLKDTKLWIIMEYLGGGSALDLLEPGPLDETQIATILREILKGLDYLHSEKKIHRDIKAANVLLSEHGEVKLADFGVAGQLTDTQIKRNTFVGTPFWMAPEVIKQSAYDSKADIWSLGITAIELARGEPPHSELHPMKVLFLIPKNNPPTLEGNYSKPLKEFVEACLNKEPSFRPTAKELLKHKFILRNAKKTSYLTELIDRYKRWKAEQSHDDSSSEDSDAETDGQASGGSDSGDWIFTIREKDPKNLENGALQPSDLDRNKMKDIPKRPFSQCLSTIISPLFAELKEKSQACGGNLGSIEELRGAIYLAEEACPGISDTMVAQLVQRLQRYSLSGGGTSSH
Chain of UniProt Q15303 (whole entry, looked up): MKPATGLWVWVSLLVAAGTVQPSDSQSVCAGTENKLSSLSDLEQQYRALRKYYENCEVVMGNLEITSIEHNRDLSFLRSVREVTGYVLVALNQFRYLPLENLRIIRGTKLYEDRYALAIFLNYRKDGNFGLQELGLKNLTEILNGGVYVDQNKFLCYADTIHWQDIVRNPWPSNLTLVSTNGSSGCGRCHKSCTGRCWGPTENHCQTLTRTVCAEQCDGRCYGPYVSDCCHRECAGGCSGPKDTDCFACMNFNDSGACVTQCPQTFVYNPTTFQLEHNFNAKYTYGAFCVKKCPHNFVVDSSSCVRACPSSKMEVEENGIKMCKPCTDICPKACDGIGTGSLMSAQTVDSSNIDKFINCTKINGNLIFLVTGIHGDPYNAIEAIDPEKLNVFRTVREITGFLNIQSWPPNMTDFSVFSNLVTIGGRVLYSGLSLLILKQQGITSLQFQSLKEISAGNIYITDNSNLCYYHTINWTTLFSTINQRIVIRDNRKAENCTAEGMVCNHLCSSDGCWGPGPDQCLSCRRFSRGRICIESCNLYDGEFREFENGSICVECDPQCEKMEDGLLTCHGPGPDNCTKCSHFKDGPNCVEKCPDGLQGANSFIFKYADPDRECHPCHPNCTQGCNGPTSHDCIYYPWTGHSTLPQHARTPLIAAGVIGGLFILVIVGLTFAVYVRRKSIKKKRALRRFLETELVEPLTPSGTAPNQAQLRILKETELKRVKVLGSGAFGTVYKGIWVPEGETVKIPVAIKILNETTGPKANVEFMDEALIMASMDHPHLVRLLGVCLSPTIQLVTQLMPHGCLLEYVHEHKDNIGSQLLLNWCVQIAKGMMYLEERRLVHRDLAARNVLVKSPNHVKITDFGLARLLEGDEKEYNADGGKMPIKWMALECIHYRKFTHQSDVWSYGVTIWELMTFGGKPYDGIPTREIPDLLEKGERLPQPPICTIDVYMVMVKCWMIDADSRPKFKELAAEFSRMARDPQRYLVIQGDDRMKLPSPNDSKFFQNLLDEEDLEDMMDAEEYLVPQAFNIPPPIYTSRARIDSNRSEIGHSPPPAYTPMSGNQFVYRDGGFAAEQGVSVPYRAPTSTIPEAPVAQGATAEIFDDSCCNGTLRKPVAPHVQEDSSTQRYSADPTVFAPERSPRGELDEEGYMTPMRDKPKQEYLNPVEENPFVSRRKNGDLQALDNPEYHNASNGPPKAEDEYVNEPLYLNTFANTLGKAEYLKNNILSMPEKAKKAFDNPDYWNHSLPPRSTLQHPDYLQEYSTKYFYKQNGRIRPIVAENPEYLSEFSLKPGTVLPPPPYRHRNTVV
Chain of UniProt Q9BUB5 (whole entry, looked up): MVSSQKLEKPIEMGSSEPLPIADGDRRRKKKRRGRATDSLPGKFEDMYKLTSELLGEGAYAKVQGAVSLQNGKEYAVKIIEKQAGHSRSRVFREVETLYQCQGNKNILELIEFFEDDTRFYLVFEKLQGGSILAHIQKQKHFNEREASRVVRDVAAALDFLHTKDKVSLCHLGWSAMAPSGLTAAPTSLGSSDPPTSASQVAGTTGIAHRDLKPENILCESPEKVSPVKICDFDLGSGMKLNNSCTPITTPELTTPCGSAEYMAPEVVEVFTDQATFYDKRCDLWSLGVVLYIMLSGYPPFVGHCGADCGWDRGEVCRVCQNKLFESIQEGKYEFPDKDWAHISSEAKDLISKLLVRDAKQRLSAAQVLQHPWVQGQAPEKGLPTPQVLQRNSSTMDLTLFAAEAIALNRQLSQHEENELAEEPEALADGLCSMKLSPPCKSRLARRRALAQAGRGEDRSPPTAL

Set 1 — SMILES: COc1ccc2c(c1)/C(=C/c1cnc[nH]1)C(=O)N2; effect on: enzyme activity; action: inhibitor; concentration: 0.5 µM; reference: control; measurement: remaining activity
Receptor tyrosine-protein kinase erbB-4 (ERBB4, Homo sapiens, UniProt Q15303): 106%
Serine/threonine-protein kinase 24 (STK24, Homo sapiens, UniProt Q9Y6E0): 53.1%
Ephrin type-A receptor 8 (EPHA8, Homo sapiens, UniProt P29322): 103%
Death-associated protein kinase 3 (DAPK3, Homo sapiens, UniProt O43293): 101%
Mitogen-activated protein kinase 8 (MAPK8, Homo sapiens, UniProt P45983): 95.9%
MAP kinase-activated protein kinase 5 (MAPKAPK5, Homo sapiens, UniProt Q8IW41): 95.2%
Protein kinase C beta type, isoform beta-II (PRKCB, Homo sapiens, UniProt P05771): 110%
MAP kinase-interacting serine/threonine-protein kinase 1 (MKNK1, Homo sapiens, UniProt Q9BUB5): 88.4%
Mitogen-activated protein kinase kinase kinase 11 (MAP3K11, Homo sapiens, UniProt Q16584): 61.6%
Myosin light chain kinase 2, skeletal/cardiac muscle (MYLK2, Homo sapiens, UniProt Q9H1R3): 21%

Set 2 — organism: Vesicular stomatitis virus; effect on: pseudovirus infection; concentration: concentration not given; setting: VSV-G control pseudotype; reference: vehicle; measurement: GFP-positive cells
COC(=O)N[C@H](C(=O)N[C@@H](Cc1ccccc1)[C@@H](O)CN(Cc1ccc(-c2ccccn2)cc1)NC(=O)[C@@H](NC(=O)OC)C(C)(C)C)C(C)(C)C.O=S(=O)(O)O: 99.8%
CC(C)C(=O)OCC(=O)[C@@]12O[C@H](C3CCCCC3)O[C@@H]1C[C@H]1[C@@H]3CCC4=CC(=O)C=C[C@]4(C)[C@H]3[C@@H](O)C[C@@]12C: 113%
COS(=O)(=O)[O-].C[N+]1(C)CCC(=C(c2ccccc2)c2ccccc2)CC1: 99.3%
CCC(=O)O[C@@H](O[P@](=O)(CCCCc1ccccc1)CC(=O)N1C[C@H](C2CCCCC2)C[C@H]1C(=O)[O-])C(C)C.[Na+]: 106%
OC[C@H]1O[C@@H](c2ccc(Cl)c(Cc3ccc(O[C@H]4CCOC4)cc3)c2)[C@H](O)[C@@H](O)[C@@H]1O: 131%
COc1cc2c(cc1Cc1cccc(Cl)c1F)c(=O)c(C(=O)O)cn2[C@H](CO)C(C)C: 104%
CNC[C@H](O)[C@@H](O)[C@H](O)[C@H](O)CO.CNC[C@H](O)[C@@H](O)[C@H](O)[C@H](O)CO.C[C@@H](O[C@H]1OCCN(Cc2nn(P(=O)(O)O)c(=O)[nH]2)[C@H]1c1ccc(F)cc1)c1cc(C(F)(F)F)cc(C(F)(F)F)c1: 112%
Cc1ccc(-n2nccn2)c(C(=O)N2CCN(c3nc4cc(Cl)ccc4o3)CC[C@H]2C)c1: 106%
C/C=C1\NC(=O)[C@H]2CSSCC/C=C/[C@H](CC(=O)N[C@H](C(C)C)C(=O)N2)OC(=O)[C@H](C(C)C)NC1=O: 19.4%
CC(=O)OC(C)OC(=O)C(C)c1ccc(-c2ccccc2)c(F)c1 (stereo not shown): 105%
C[C@@H](O)[C@H]1C(=O)N2C(C(=O)O)=C(S[C@@H]3CN[C@H](CNS(N)(=O)=O)C3)[C@H](C)[C@H]12.O: 105%
COc1c(-c2ccc3cc(NS(C)(=O)=O)ccc3c2)cc(-n2ccc(=O)[nH]c2=O)cc1C(C)(C)C: 84.5%
Cc1nccn1CC1CCc2c(c3ccccc3n2C)C1=O.Cl (stereo not shown): 110%
Cc1[nH]c2ccccc2c1CCNCc1ccc(/C=C/C(=O)NO)cc1: 75.9%
O=C1CN(/N=C/c2ccc(-c3ccc([N+](=O)[O-])cc3)o2)C(=O)[N-]1.[Na+]: 109%
CO[C@H]1C[C@@H]2CC[C@@H](C)[C@@](O)(O2)C(=O)C(=O)N2CCCC[C@H]2C(=O)O[C@H]([C@H](C)C[C@@H]2CC[C@@H](OCCO)[C@H](OC)C2)CC(=O)[C@H](C)/C=C(\C)[C@@H](O)[C@@H](OC)C(=O)[C@H](C)C[C@H](C)/C=C/C=C/C=C/1C: 136%
CC(C)CN(C[C@@H](O)[C@H](Cc1ccccc1)NC(=O)O[C@H]1CO[C@H]2OCC[C@H]21)S(=O)(=O)c1ccc(N)cc1.CCO: 105%
N#CC[C@H](C1CCCC1)n1cc(-c2ncnc3[nH]ccc23)cn1: 153%
Cc1cc(Nc2ncc(Cl)c(Nc3ccccc3S(=O)(=O)C(C)C)n2)c(OC(C)C)cc1C1CCNCC1: 110%
CC[C@H](C)[C@H]1O[C@]2(CC[C@@H]1C)C[C@@H]1C[C@@H](C/C=C(\C)[C@@H](O[C@H]3C[C@H](OC)[C@@H](O[C@H]4C[C@H](OC)[C@@H](O)[C@H](C)O4)[C@H](C)O3)[C@@H](C)/C=C/C=C3\CO[C@@H]4[C@H](O)C(C)=C[C@@H](C(=O)O1)[C@]34O)O2: 151%
CS(=O)(=O)c1ccc(C(=O)Nc2ccc(Cl)c(-c3ccccn3)c2)c(Cl)c1: 2.43%
Nc1nc2[nH]cc(CCc3ccc(C(=O)N[C@@H](CCC(=O)[O-])C(=O)[O-])cc3)c2c(=O)[nH]1.Nc1nc2[nH]cc(CCc3ccc(C(=O)N[C@@H](CCC(=O)[O-])C(=O)[O-])cc3)c2c(=O)[nH]1.O.O.O.O.O.[Na+].[Na+].[Na+].[Na+]: 118%
CC(=O)O[C@]1(C(C)=O)CC[C@H]2[C@@H]3C[C@H](C)C4=CC(=O)CC[C@]4(C)[C@H]3CC[C@@]21C: 111%
Cc1cc(C#N)cc(C)c1Oc1nc(Nc2ccc(C#N)cc2)nc(N)c1Br: 22.8%
CCC[C@H](NC(=O)[C@@H]1[C@H]2CCC[C@H]2CN1C(=O)[C@@H](NC(=O)[C@@H](NC(=O)c1cnccn1)C1CCCCC1)C(C)(C)C)C(=O)C(=O)NC1CC1: 99.2%

Set 3 — cell line: HEK-293T-ACE2-TMPRSS2; technique: cell count; concentration: 10 µM; measurement: viability
Cc1cc(C)cc(Oc2c(C)oc3c(CN4CCCCCC4)c(O)ccc3c2=O)c1: 71%
Cc1ccc(-c2cc(O)c3c(c2)CN(C(=O)Nc2ccccc2)CCO3)s1: 102%
COc1cc(NC(=O)CN2C[C@@H](C)O[C@@H](C)C2)ccc1NC(=O)CC(C)C: 70%
Nc1nc(N)c2nc(-c3ccccc3)c(N)nc2n1: 70%
CCOC(=O)C1(Cc2cccc(F)c2)CCN(C(=O)C2CCC2)CC1: 111%
OC[C@@H]1CN(C2CCSCC2)C[C@H]1c1nc(-c2cccnc2)no1: 93%
COc1ccc(-c2nc(CN(Cc3c(C)nn(C)c3C)C3CC3)c(C)o2)c(C)c1C: 93%
CCCC(=O)Nc1nc2ccc(NC(=O)C3(c4ccccc4)CCCC3)cc2s1: 66%
CC(C)Oc1cccc(-c2csc(C(N)=O)c2)c1: 65%
CN(CCCNC(=O)c1cc2c(s1)-c1ccc(Cl)cc1SC2)Cc1ccccc1: 93%
O=c1c(Cl)c(Cl)cnn1Cc1ccccc1Br: 220%
CC1CCN(c2nccnc2Oc2ccc(C(=O)N3CCN(C(=O)c4ccco4)CC3)cc2)CC1: 107%
COc1ccc([N+](=O)[O-])c(S(=O)(=O)c2ccc(Cl)cc2)n1: 65%
CN(C)C(=O)N1CCC(C(=O)N2CCOC(Cc3cccc4ccccc34)C2)CC1 (stereo not shown): 108%
O=S(=O)(c1ccc(SCc2cc3c(cc2Br)OCO3)nc1)N1CCCC1: 91%
CCS(=O)(=O)c1ncc(Cl)c(C(=O)Nc2nc3ccc(F)cc3s2)n1: 82%
O=c1c(Cl)c(Cl)cnn1Cc1ccc(F)cc1Br: 149%
O=C(c1ccc(Cl)cc1)N1C[C@@H](CO)[C@H](c2nc(C3CC3)no2)C1: 92%
O=C1NCCN1c1cccc(C(=O)N2CCc3c([nH]c4ccccc34)C2C2CCCCC2)c1 (stereo not shown): 67%
CC(C)C[C@@H](C=O)NC(=O)[C@H](CC(C)C)NC(=O)[C@H](CC(C)C)NC(=O)OCc1ccccc1: 136%
COc1cccc(OC)c1C(=O)Nc1cc2c(c([N+](=O)[O-])c1C)C(C)(C)CC2(C)C: 77%
O=c1c(Cl)c(Cl)cnn1-c1ccccc1: 84%
Cn1ccnc1SCc1cn2cc(Cl)ccc2n1: 88%
CCc1ccccc1NS(=O)(=O)c1ccc(-n2ncc(Cl)c(Cl)c2=O)cc1: 83%
CC(Cn1cncn1)NC(=O)c1cc(COc2cccc(F)c2)[nH]n1 (stereo not shown): 112%

Mixed results
O=C(NCCc1ccccc1)C(Oc1ccccc1P(=O)(O)O)c1ccccc1 (stereo not shown) — dead β-cells (human islet β-cells; β-cell death; human; 10 µM, 24 h, with: 20 mM glucose + 500 µM palmitate; reference: GFP+ cells): 51.3% and 30.5% and 34.4% and 61.1%

For quick reference, copied from above (set 3):
O=S(=O)(c1ccc(SCc2cc3c(cc2Br)OCO3)nc1)N1CCCC1: 91%
CCS(=O)(=O)c1ncc(Cl)c(C(=O)Nc2nc3ccc(F)cc3s2)n1: 82%
O=c1c(Cl)c(Cl)cnn1Cc1ccc(F)cc1Br: 149%
O=C(c1ccc(Cl)cc1)N1C[C@@H](CO)[C@H](c2nc(C3CC3)no2)C1: 92%
O=C1NCCN1c1cccc(C(=O)N2CCc3c([nH]c4ccccc34)C2C2CCCCC2)c1 (stereo not shown): 67%
CC(C)C[C@@H](C=O)NC(=O)[C@H](CC(C)C)NC(=O)[C@H](CC(C)C)NC(=O)OCc1ccccc1: 136%
